Assay results gathered from unrelated publications.
Every numbered part comes from another study and shows a few of its results, in no order.
UniProt P20794, sequence (whole entry, looked up): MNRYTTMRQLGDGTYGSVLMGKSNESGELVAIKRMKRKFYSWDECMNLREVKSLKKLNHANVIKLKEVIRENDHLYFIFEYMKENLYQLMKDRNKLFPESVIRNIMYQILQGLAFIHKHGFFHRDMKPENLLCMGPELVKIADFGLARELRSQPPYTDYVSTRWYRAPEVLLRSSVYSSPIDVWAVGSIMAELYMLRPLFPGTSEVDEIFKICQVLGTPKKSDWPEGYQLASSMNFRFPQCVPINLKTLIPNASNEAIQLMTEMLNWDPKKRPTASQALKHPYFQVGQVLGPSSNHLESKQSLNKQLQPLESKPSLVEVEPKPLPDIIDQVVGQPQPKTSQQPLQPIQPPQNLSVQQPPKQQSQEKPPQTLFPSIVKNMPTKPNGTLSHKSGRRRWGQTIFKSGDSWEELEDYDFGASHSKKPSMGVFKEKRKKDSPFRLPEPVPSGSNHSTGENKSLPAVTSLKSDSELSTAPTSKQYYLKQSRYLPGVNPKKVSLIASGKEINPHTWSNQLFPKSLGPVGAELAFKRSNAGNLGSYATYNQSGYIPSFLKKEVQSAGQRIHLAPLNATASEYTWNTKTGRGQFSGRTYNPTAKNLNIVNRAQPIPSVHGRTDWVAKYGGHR
UniProt Q32MK0, sequence (whole entry, looked up): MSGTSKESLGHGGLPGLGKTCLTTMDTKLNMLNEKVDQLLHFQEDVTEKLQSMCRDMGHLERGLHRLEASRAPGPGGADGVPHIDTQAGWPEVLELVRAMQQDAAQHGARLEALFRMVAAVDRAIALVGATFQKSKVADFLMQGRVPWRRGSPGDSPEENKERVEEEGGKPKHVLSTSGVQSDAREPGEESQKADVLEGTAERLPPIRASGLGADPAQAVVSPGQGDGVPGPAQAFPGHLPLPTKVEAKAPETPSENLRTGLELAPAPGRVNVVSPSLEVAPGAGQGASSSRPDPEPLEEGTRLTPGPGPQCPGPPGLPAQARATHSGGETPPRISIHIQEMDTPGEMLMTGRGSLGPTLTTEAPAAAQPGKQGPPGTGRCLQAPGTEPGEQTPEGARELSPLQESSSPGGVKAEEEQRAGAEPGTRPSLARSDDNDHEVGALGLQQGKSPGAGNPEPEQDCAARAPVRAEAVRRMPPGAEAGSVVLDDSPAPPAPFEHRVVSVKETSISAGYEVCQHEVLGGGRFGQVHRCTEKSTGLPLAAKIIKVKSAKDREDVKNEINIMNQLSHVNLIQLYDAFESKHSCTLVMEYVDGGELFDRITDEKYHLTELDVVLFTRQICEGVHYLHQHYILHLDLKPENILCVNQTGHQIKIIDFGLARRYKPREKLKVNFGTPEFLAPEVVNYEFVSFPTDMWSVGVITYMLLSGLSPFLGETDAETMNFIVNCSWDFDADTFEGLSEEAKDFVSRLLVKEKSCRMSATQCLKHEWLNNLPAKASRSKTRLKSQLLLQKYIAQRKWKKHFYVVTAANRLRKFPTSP
UniProt P41240, sequence (whole entry, looked up): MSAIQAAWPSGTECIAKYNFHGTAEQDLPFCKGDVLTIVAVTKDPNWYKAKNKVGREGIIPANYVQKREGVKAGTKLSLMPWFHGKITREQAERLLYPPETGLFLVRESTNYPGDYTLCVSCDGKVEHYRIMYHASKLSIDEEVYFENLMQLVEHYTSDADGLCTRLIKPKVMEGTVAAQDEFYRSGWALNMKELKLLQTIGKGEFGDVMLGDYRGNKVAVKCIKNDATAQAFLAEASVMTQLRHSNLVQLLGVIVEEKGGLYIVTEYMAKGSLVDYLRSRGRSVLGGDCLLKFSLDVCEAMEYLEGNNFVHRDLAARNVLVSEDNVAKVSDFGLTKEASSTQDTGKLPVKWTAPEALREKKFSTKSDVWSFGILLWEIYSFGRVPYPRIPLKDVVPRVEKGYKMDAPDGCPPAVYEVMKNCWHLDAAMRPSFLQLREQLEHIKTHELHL
UniProt Q8IW41, sequence (whole entry, looked up): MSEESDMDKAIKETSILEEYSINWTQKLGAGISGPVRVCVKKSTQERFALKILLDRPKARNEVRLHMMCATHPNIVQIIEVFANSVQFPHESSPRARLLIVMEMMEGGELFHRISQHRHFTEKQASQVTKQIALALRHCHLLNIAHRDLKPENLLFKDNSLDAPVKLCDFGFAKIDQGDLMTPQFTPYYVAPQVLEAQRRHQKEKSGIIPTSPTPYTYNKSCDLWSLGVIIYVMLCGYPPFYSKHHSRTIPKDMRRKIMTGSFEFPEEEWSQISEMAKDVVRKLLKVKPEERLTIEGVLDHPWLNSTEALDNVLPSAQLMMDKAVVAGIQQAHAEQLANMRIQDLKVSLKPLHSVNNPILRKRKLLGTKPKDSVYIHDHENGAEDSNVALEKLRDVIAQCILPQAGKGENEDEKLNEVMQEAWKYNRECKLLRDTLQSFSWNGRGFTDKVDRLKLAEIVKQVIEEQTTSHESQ
UniProt Q13131, sequence (whole entry, looked up): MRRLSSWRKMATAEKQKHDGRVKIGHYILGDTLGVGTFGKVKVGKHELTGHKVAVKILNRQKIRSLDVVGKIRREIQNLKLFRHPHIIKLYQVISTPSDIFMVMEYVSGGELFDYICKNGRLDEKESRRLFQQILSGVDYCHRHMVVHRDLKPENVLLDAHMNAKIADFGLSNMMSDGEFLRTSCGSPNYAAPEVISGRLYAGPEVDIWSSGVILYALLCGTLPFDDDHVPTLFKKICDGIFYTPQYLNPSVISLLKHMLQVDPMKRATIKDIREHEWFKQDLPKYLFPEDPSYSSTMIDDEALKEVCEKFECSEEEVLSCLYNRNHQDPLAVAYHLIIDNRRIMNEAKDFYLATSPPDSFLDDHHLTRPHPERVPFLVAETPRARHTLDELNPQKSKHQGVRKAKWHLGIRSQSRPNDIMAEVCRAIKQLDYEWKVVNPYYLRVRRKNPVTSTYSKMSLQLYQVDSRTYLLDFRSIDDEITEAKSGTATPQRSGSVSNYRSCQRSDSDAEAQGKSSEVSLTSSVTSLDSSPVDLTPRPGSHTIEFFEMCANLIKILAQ
UniProt P00519, sequence (whole entry, unmodified, looked up): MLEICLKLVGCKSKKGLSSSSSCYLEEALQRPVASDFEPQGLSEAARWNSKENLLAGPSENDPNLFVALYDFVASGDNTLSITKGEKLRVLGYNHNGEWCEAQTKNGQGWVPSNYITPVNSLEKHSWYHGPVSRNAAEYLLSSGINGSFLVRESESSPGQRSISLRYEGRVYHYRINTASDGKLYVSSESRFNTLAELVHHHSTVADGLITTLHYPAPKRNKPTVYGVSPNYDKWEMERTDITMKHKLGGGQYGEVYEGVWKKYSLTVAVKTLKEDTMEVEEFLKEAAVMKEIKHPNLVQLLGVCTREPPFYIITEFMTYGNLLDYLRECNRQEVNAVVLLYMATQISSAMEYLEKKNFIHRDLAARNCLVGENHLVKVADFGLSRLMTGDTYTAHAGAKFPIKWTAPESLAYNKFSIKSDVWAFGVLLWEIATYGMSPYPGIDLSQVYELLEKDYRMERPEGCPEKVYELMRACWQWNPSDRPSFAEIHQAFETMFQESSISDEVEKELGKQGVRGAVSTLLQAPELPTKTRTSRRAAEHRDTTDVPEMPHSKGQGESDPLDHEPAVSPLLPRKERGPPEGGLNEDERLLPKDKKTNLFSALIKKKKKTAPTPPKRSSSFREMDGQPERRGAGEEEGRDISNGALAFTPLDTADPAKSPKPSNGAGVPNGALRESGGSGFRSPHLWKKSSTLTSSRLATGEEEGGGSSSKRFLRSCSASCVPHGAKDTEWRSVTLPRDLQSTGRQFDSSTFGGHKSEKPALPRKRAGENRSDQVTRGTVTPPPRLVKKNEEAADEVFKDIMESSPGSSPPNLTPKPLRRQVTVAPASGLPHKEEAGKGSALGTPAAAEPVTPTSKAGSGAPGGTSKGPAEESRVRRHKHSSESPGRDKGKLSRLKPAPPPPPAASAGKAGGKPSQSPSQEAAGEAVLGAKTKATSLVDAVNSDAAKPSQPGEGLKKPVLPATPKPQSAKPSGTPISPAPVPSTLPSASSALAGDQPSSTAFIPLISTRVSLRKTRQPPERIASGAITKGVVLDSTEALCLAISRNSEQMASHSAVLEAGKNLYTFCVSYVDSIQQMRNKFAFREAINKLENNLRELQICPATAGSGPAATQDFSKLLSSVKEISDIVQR
UniProt P42685, sequence (whole entry, looked up): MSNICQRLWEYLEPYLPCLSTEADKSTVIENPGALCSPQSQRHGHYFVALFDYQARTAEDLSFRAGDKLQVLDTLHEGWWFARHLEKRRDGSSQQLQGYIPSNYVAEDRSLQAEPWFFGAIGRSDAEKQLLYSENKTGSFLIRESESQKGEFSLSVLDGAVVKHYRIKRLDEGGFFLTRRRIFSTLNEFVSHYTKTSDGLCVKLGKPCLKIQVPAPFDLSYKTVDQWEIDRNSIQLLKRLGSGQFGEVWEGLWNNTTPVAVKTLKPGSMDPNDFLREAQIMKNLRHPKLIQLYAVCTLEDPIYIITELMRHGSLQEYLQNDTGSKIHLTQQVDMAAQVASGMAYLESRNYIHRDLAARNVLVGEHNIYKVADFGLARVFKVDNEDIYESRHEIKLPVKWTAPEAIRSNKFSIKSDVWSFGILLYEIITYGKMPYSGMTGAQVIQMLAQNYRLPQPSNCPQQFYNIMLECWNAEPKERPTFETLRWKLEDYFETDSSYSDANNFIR

Series 1
Compound: Cc1sc(C(=O)NC2COC2)cc1-n1cc(NC(=O)Nc2c(F)cccc2Cl)cn1
Tested at: 10 µM
Quantity: remaining activity
PRKCH (Homo sapiens, UniProt P24723); enzyme activity; relative to: untreated control: 84.4%
STK4 (Homo sapiens, UniProt Q13043); enzyme activity; relative to: untreated control: 106%
MAPKAPK5 (Homo sapiens, UniProt Q8IW41); enzyme activity; relative to: untreated control: 95.3%
CSK (Homo sapiens, UniProt P41240); enzyme activity; relative to: untreated control: 94.9%
CSNK1G1 (Homo sapiens, UniProt Q9HCP0); enzyme activity; relative to: untreated control: 97.7%
KSR2 (Homo sapiens, UniProt Q6VAB6); enzyme activity; relative to: untreated control: 94.2%
CSNK1G3 (Homo sapiens, UniProt Q9Y6M4); enzyme activity; relative to: untreated control: 90.5%
Tyrosine-protein kinase Lyn, isoform B (LYN, Homo sapiens, UniProt P07948); kinase activity, kinase panel profiling: 86.8%

Series 2
SMILES: CN(C)CC#Cc1ccc(OCCCc2sc(N3CCc4cccc(C(=O)Nc5nc6ccccc6s5)c4C3)nc2C(=O)O)c(F)c1
Method: competition with immobilised ligand
Tested at: 1 µM
Quantity: remaining binding
PRKAA1 (Homo sapiens, UniProt Q13131); cell-free assay: 100%
MAK (Homo sapiens, UniProt P20794); cell-free assay: 100%
STK17A (Homo sapiens, UniProt Q9UEE5); cell-free assay: 85%
MAPK8 (Homo sapiens, UniProt P45983); cell-free assay: 62%
PDGFRA (Homo sapiens, UniProt P16234); cell-free assay: 100%
ULK2 (Homo sapiens, UniProt Q8IYT8); cell-free assay: 100%
FRK (Homo sapiens, UniProt P42685); cell-free assay: 96%
ZAP70 (Homo sapiens, UniProt P43403); cell-free assay: 100%
CAMK2G (Homo sapiens, UniProt Q13555); cell-free assay: 62%
BRSK2 (Homo sapiens, UniProt Q8IWQ3); cell-free assay: 93%
DCLK1 (Homo sapiens, UniProt O15075); cell-free assay: 72%
MAPK1 (Homo sapiens, UniProt P28482); cell-free assay: 100%
Tyrosine-protein kinase ABL1, non-phosphorylated (ABL1, Homo sapiens, UniProt P00519, F317I); binding: 100%
eIF-2-alpha kinase GCN2, C-terminal kinase domain (EIF2AK4, Homo sapiens, UniProt Q9P2K8, S808G); cell-free assay: 83%
LRRK2 (Homo sapiens, UniProt Q5S007); cell-free assay: 100%
MYLK3 (Homo sapiens, UniProt Q32MK0); cell-free assay: 78%

Series 3
Organism: Sarcocystis neurona
Effect on: parasite growth
Tested at: 10 µM
Setting: first screen
Relative to: untreated
Quantity: log2 fold change
Br.O=C1CC2(CCCC2)CC(=O)N1CCNCC1COc2ccccc2O1 (stereo not shown): -0.4
Nc1ncnc2c1ncn2[C@@H]1O[C@H](CO)C[C@H]1O: 0.25
C[C@]12CCC(=O)C=C1CC[C@@H]1[C@@H]2CC[C@@]2(C)[C@H]1CC[C@]2(O)C(=O)CO: -0.16
Cl.NC1CCN(c2cccc(Cl)n2)CC1: 0.21
CN1CCN(c2c(F)cc3c(=O)c(C(=O)O)cn4c3c2SCC4)CC1.Cl: 0.28
Nc1ccc2cn[nH]c2c1: 0.15
CC1(C)S[C@@H]2[C@H](NC(=O)Cc3ccccc3)C(=O)N2[C@H]1C(=O)[O-].[K+]: 0.26
O=c1[nH]c(=O)n([C@H]2C[C@H](O)[C@@H](CO)O2)cc1F: -1.66
CC(COc1ccccc1Cc1ccccc1)N1CCCCC1.O=P(O)(O)O (stereo not shown): -0.0655
CNCCC(Oc1ccc(C(F)(F)F)cc1)c1ccccc1.Cl (stereo not shown): 0.17
Cc1nccn1CC1CCc2c(c3ccccc3n2C)C1=O.Cl (stereo not shown): 0.0949
CN[C@@H]1[C@H](O)[C@H](NC)[C@H]2O[C@@]3(O)C(=O)C[C@@H](C)O[C@H]3O[C@@H]2[C@H]1O.Cl.Cl: 0.19

Series 4
Target: Beta-1 adrenergic receptor (ADRB1, Homo sapiens, UniProt P08588)
UniProt P08588, sequence (whole entry, looked up): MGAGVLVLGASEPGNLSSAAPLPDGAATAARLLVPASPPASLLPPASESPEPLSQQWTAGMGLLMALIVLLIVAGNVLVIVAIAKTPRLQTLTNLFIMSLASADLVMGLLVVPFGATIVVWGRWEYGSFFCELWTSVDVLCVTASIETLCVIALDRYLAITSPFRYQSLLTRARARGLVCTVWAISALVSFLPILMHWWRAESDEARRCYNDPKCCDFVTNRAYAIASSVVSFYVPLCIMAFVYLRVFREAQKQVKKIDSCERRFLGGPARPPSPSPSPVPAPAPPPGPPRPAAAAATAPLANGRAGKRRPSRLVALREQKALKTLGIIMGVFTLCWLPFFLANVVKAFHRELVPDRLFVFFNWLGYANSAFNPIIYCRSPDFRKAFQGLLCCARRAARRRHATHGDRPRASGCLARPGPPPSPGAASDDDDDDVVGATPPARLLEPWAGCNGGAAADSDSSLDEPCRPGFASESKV
Action: antagonist
Quantity: IC50
Cc1noc2c(NCCc3ccccn3)cc(-c3cccnc3)nc12: ≥ 100 µM
Cc1ccccc1-c1n[nH]c2ncc(-c3cn[nH]c3)nc12: ≥ 100 µM
O=c1cc(-c2ccccn2)oc2c(NC3CCOCC3)nccc12: ≥ 100 µM
OC(COc1ccc(CN2CCC(F)CC2)cc1)CN1CCCCC1 (stereo not shown): ≥ 100 µM
Ic1ccc(Nc2nc(NCCN3CCOCC3)nc(N3CCOCC3)n2)cc1: ≥ 100 µM
CC(COc1ccccc1)NC(C)C(O)c1ccc(O)cc1 (stereo not shown): ≥ 100 µM
Cc1ccc2c(-c3ccc(NC4CC4)nn3)cccc2n1: 22.4 µM
Cc1cc(C)n(C2CN(Cc3cccc(OCC(O)CN4CCOCC4)c3)C2)n1 (stereo not shown): ≥ 100 µM
CCNC(=O)Nc1ccc([C@@H](O)[C@H]2COCC(=O)N2Cc2ccccc2)cc1: ≥ 100 µM
CN(C)c1cccc(NC(=O)Cc2c[nH]c3ncc(-c4cnn(C)c4)cc23)c1: ≥ 100 µM

Excerpt of the above (series 3):
C[C@]12CCC(=O)C=C1CC[C@@H]1[C@@H]2CC[C@@]2(C)[C@H]1CC[C@]2(O)C(=O)CO: -0.16
CC1(C)S[C@@H]2[C@H](NC(=O)Cc3ccccc3)C(=O)N2[C@H]1C(=O)[O-].[K+]: 0.26
Br.O=C1CC2(CCCC2)CC(=O)N1CCNCC1COc2ccccc2O1 (stereo not shown): -0.4
Cc1nccn1CC1CCc2c(c3ccccc3n2C)C1=O.Cl (stereo not shown): 0.0949
CNCCC(Oc1ccc(C(F)(F)F)cc1)c1ccccc1.Cl (stereo not shown): 0.17
